Measurements collected from several papers.
Each line is one published result; not all experiments were run side by side. Several values in a cell are separate wells, animals, samples, runs or records. Numbers after ± are the reported error.
Nuclear receptor subfamily 2 group C member 2 ligand-binding domain: Nuclear receptor subfamily 2 group C member 2, ligand-binding domain (Homo sapiens, UniProt P49116)
Chain of UniProt P49116 (whole entry, looked up): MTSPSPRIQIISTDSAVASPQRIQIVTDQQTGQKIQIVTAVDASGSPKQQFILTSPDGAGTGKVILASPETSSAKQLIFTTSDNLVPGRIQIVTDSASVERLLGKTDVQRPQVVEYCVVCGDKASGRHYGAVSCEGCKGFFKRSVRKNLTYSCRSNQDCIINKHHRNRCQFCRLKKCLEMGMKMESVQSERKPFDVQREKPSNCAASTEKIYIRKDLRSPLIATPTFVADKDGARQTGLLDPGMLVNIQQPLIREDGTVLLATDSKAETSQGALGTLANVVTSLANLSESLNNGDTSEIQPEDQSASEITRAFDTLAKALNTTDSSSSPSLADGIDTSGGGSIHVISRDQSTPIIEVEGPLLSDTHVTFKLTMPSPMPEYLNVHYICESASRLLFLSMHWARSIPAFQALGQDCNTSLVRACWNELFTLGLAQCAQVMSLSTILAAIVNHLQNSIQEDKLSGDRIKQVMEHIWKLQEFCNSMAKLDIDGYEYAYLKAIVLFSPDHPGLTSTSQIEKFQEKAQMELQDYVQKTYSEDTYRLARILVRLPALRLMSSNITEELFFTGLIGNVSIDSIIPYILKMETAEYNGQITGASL
Chain of UniProt Q7KZI7 (whole entry, looked up): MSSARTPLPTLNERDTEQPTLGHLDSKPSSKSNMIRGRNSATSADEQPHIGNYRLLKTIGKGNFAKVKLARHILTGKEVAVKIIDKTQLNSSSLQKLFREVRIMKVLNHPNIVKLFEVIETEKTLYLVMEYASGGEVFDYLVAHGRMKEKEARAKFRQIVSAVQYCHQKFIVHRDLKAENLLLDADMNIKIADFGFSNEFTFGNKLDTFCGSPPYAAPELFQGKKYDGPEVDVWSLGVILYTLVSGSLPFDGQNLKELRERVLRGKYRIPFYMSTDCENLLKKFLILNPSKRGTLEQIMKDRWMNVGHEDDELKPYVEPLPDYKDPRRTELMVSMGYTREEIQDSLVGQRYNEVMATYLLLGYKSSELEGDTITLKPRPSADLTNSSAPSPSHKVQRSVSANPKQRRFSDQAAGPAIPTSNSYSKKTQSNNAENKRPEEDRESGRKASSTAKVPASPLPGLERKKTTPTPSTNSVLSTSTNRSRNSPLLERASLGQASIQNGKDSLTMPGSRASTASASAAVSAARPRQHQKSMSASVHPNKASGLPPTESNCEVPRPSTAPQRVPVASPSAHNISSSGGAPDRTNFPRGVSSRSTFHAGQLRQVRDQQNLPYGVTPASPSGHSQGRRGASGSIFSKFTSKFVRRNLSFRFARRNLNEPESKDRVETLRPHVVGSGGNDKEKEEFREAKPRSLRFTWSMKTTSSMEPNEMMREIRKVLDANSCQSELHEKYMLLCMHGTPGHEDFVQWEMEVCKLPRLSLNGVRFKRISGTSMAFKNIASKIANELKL

SMILES | target or system | assay | system | setting | scale | endpoint | value
CC(C)NCCCn1c(Sc2cc3c(cc2I)OCO3)nc2c(N)ncnc21 | iPSC-derived cardiomyocytes | concentration-response fit |  |  | relative to: vehicle | fitted bottom MyBP-C/MYH ratio | 35.2%
CC(NC(=O)c1ccccc1/N=C/c1c(O)ccc2ccccc12)c1ccccc1 (stereo not drawn) | OCI-Ly1 |  |  | 1 µM, 120 h |  | viability | 103%
CCn1cc(-c2cc(Cn3ccoc3=N)cc3c2CCN([C@@H](C)c2cc(OC)ccn2)C3=O)c(C(F)(F)F)n1 | MV4-11 | cell growth, inhibitor |  | 120 h |  | EC50 | 0.0199 µM
CC/C(=N\NC(=O)NCc1cccc(O)c1)c1ccc(O)c(C)c1O | SK-OV-3 | Western blot, item: TAZ |  | 10 µM, 3 h, 2D culture, unit not given | relative to: β-actin | protein level | 1.57 ± 0.81
COc1ccccc1OCC(O)COC(N)=O (stereo not drawn) | Nuclear receptor subfamily 2 group C member 2 ligand-binding domain | SPR imaging |  |  |  | Kd | 0.0959 nM
CN(C)c1ccc(C(=C2C=CC(=[N+](C)C)C=C2)c2ccc(N(C)C)cc2)cc1 | iPSC-derived cardiomyocytes | concentration-response fit |  | concentration not given | relative to: vehicle | fitted bottom MyBP-C level | 0%
COC(=O)c1ccc(N2CCN(C)CC2)c(NC(=O)c2cccc(OC)c2)c1 | OCI-Ly1 |  |  | 0.1 µM, 120 h |  | viability | 190%
Cc1cccc(-c2[nH]c(CNc3ccccc3F)nc2-c2ccc3ncnn3c2)n1 | pomalidomide-resistant MM1.S cells | XTT |  | 3 µM | higher = more viable cells | XTT absorbance | 0.7 E-1 and 1.4 E-1 and 1.1 E-1
CCCCc1nc(Cl)c(CO)n1Cc1ccc(-c2ccccc2-c2nn[nH]n2)cc1 | human PBMC | RNA-seq, item: CLEC10A mRNA |  | 10 µg/mL, 24 h | relative to: untreated control | log2 fold change | -2.09
COc1cc2c(NC3CCN(C)CC3)nc(N3CCCN(C)CC3)nc2cc1OCCCN(C)C | OCI-Ly1 |  |  | 1 µM, 120 h |  | viability | 153%
COc1cc2ncnc(Nc3ccc(Oc4ccccc4)c(C)c3C)c2cc1OC.Cl | LoVo (KRAS G13D) | cell viability, resazurin |  | 1 µM, 72 h, added: trametinib 0 nM | relative to: DMSO | fractional effect | 0.263 and 0.267
Cc1nc2ccc(NC(=O)Cc3ccc(OC(F)(F)F)cc3)cc2[nH]1 | sample A patient iPSC-derived NPCs | cell viability protection, MTS |  | 10 µM, 24 h |  | activity class | inactive
Cc1cc(Nc2ncc(Cl)c(Nc3ccccc3S(=O)(=O)C(C)C)n2)c(OC(C)C)cc1C1CCNCC1 | CLB-BAR | phosphoproteomics LC-MS/MS, item: MELK phosphorylation |  | 200 nM, 60 min | relative to: untreated | log2 fold change | -2.52
CCCCCCCCCc1ccc(OCCOCCOCCOCCOCCOCCOCCOCCOCCO)cc1 | iPSC-derived cardiomyocytes | concentration-response fit |  |  | relative to: vehicle | fitted bottom MyBP-C/MYH ratio | 0%
C[C@H](Nc1ccc2c(c1)OCCn1cc(N3C(=O)OC[C@H]3C(F)F)nc1-2)C(N)=O | HCC1954 | cell growth, CellTiter-Glo |  | 120 h |  | Hill coefficient GR curve | 0.783
O=C(COc1cccc2c1C(=O)N(C1CCC(=O)NC1=O)C2=O)NCCOCCOCCNS(=O)(=O)Nc1cccc(-c2cn3cc(C(=O)NC4CCC4)ccc3n2)c1 (stereo not drawn) | MV4-11 | TMT proteomics, item: NAA38 protein |  | 10 µM, 4 h | relative to: DMSO | log2 fold change | 0.032
Clc1nc(NCc2ccco2)c2[nH]cnc2n1 | iPSC-derived cardiomyocytes | RNA-seq, item: chrX exon ending 73994961 |  | unit not given | relative to: DMSO minus compound | ΔPSI | -0.204
Cc1cc(-c2ccccc2)n(-c2nc(-c3ccc(Cl)cc3)c3c(NC(=O)c4ccccc4)nnc-3[nH]2)n1 | 786-0 | NCI60 SRB |  | 10 µM |  | growth percent | 97.9%
CCCCN1C[C@H](O)[C@@H](O)[C@@H](O)[C@H]1CO | sample G patient fibroblasts | acidic compartment staining, LysoTracker Red imaging |  | 216 h |  | IC50 | 2.9 µM
CCn1cc(-c2cc(Cn3ccnc3)cc3c2CCN([C@H](c2cc(OC)ccn2)C2CC2)C3=O)c(C(F)(F)F)n1 | KG-1 | cell growth, inhibitor |  | 120 h |  | EC50 | > 30 µM
CC(C)NCC(O)c1ccc(O)c(O)c1 (stereo not drawn) | mouse ventricular cardiomyocytes |  |  | dose not given, 0.179 s |  | sarcomere length | 1.64 µm
FC(F)(F)Oc1ccc(CNc2ccc3cc[nH]c3c2)cc1 | sample A patient iPSC-derived NPCs | MTS |  | 10 µM, 24 h | relative to: vehicle | viability | 98.2 ± 1.45%
CC(=O)c1c(O)c(C)c(O)c2c1OC1=CC(=O)C(C(C)=O)C(=O)C12C (single isomer, unassigned; (+)) | hepatocytes, iPSC-derived, line W1 | cell viability |  | 48 h |  | IC50 | 18 µM
CCOC(=O)N1CCC(CN(Cc2ccc(Cl)cc2)Cc2ccc([N+](=O)[O-])s2)C1 (stereo not drawn) | HepG2, control siRNA | transcription, qPCR, item: BMAL1 mRNA |  | concentration not given |  | inhibition | 43%
CCN(CC)CCCC(C)Nc1ccnc2cc(Cl)ccc12 (stereo not drawn) | hiPSC-derived ventricular cardiomyocytes | action potential, current clamp, externally paced |  | 5 µM |  | maximal upstroke velocity | 19.8 mV/ms and 23.1 mV/ms and 13.2 mV/ms and 23.4 mV/ms
C[C@H]1[C@H](C)CC[C@]2(C)CC[C@]3(C)C(=CC(=O)[C@@H]4[C@@]5(C)CC[C@@H](O)[C@](C)(C(=O)NCc6cn(-c7cccc(Br)c7)nn6)[C@@H]5CC[C@]43C)[C@H]12 | human PBMCs | flow cytometry |  | 5 µM | relative to: CD8+ T cells | TIGIT positive cells | 9.83%
C=CCNC1=C2C[C@@H](C)C[C@H](OC)[C@H](O)[C@@H](C)/C=C(\C)[C@H](OC(N)=O)[C@@H](OC)/C=C\C=C(/C)C(=O)NC(=CC1=O)C2=O | iPSC-derived cardiomyocytes | concentration-response curve, item: MyBP-C/MYH ratio |  | 24 h |  | EC50 | 4.7 µM

SMILES | target or system | assay | system | setting | scale | endpoint | value
O=C(O)c1ccc(C(=O)O)cc1 | human cells | reporter gene, agonist, luciferase reporter |  |  | relative to: positive control | fitted curve top | 0%
C#CCCC1(CCC(=O)N2[C@H](c3ccc4c(c3)OCO4)c3[nH]c4ccccc4c3C[C@@H]2C(=O)OC)N=N1 | HeLa stably expressing GFP-LC3 |  |  | concentration not given, 4 h |  | LC3 puncta formation | inactive
O=C(CCCCCN1C(=O)c2cccc3cccc(c23)C1=O)NO | OCI-Ly1 |  |  | 0.5 µM, 120 h |  | viability | 70.5%
CCCCCCCC(=O)c1c(O)cc(O)cc1CC(=O)OCC | COS-7 |  |  | 10 µM, 24 h, 0.1% DMSO, unit not given | relative to: vehicle control | confluence | 1.06 ± 0.02
COc1ccc(NC(=S)N/N=C/c2cccc3cc4ccccc4nc23)cc1 | HeLa | PI flow cytometry |  | IC50, 48 h |  | G2/M phase cells | 12.5 ± 2.8%
Cn1cc(-c2ccc(-c3cncc(Cl)c3N3CCC4(CCNC4=O)CC3)cc2)cn1 | COLO 205 | gene expression, microarray, item: TNRC18 mRNA |  | concentration not given, 2 h | relative to: untreated cells | log2 fold change | 2
O=C1N(Cc2ccccc2Cl)c2ccccc2C12NN=C(c1ccccc1)S2 (stereo not drawn) | NSCLC and TNBC cells | Western blot, item: cyclin B1 |  | concentration not given |  | protein level | decreased
CO[C@@H]1[C@@H](OC(N)=O)[C@@H](O)[C@H](Oc2ccc3c(O)c(NC(=O)c4ccc(O)c(CC=C(C)C)c4)c(=O)oc3c2C)OC1(C)C | Nuclear receptor subfamily 2 group C member 2 ligand-binding domain | SPR imaging |  |  |  | Kd | 122 nM
CC(C)(c1ccc(O)cc1)c1ccc(O)cc1 | HepG2 spheroids | Hoechst flow cytometry |  | 1 µM, 96 h |  | S phase cells | 11.7 ± 4.22%
CC[C@H](C)C(=O)O[C@H]1C[C@H](O)C=C2C=C[C@H](C)[C@H](CC[C@@H](O)C[C@@H](O)CC(=O)O)[C@H]21 | COS-7 |  |  | 10 µM, 24 h, 0.1% DMSO, unit not given | relative to: vehicle control | apoptotic cells | 0.76 ± 0.16
c1ccc2c(Cc3c[nH]c4ccccc34)c[nH]c2c1 | OCI-Ly1 |  |  | 1 µM, 120 h |  | viability | 138%
O=C(/C=C/C=C/C=C/C1CCCCC1)NC1=C[C@@](O)(/C=C/C=C/C=C/C(=O)NC2=C(O)CCC2=O)[C@@H]2O[C@@H]2C1=O | jhos2 | cell growth, inhibitor, CellTiter-Glo luminescence |  | 78 h | relative to: day 0 cell count | GI50 | 13.4 µM
N#C/C(=C\c1ccc(-c2cc(Cl)ccc2Cl)o1)C(=O)Nc1cccc2ncccc12 | OCI-Ly1 |  |  | 0.5 µM, 120 h |  | viability | 96.3%
[Cl-].[Cl-].[Ru+2].c1cnc2c(c1)ccc1cccnc12.c1cnc2c(c1)ccc1cccnc12.c1csc(-c2ccc(-c3ccc(-c4ccc(-c5nc6c7cccnc7c7ncccc7c6[nH]5)s4)s3)s2)c1 | SK-MEL-28 |  |  | normoxia, added: red light 633 nm, 100 J/cm2 |  | phototherapeutic index | 5
COc1cnc2cccc(N3CCc4c(cc(Cn5ccnc5C)cc4-c4cn(C)nc4C(F)(F)F)C3=O)c2c1 | OVSAHO | cell growth, inhibitor |  | 120 h |  | EC50 | > 30 µM
Cn1c(Nc2nc3ccc(C(F)(F)F)cc3s2)nc2cc(C(=O)NCCOCCO)ccc21 | SH-SY5Y | RNA-seq, item: MALL mRNA |  | 5 µM, 5 h | relative to: untreated cells | fold change | 80.7
CCn1c(=O)/c(=C2\Sc3cc(Cl)ccc3N2C)s/c1=C\c1scc[n+]1Cc1ccccc1.[Cl-] | iPSC-derived cardiomyocytes | concentration-response fit |  | concentration not given | relative to: vehicle | fitted bottom MyBP-C level | 0%
O=C(C[C@@H](C(F)F)n1ccc(F)n1)N1CCC(O)(Cn2cnc3c(cnn3-c3ccc(F)cc3)c2=O)CC1 | CHP-212 resistant | PI staining flow cytometry |  | 1 µM, 24 h |  | cells in S phase | 12.4% and 10.8% and 13.4%
Nc1ncnc2c1ncn2[C@@H]1O[C@H](CSCC[C@H](N)C(=O)O)[C@@H](O)[C@H]1O | OCI-Ly1 |  |  | 0.5 µM, 120 h |  | viability | 161%
CCc1cnc(N2CCC(c3nc(COc4ccc(-n5cnnn5)cc4)cs3)CC2)nc1 | HEK293T | RNA-seq, item: SLC1A4 mRNA |  | 10 µM, 6 h | relative to: vehicle | log2 fold change | 0.945
CCCCN1CCN(c2ccc3nc(-c4ccc5nc(-c6cc(OC)ccc6OC)[nH]c5c4)[nH]c3c2)CC1 | 786-0 | cell growth, NCI-60 SRB |  | 10 µM, 48 h |  | growth percent | 100%
Clc1ccc(N/N=C(\c2ccccc2)c2ccccn2)nc1 | OCI-Ly1 |  |  | 0.5 µM, 120 h |  | viability | 0.519%
CCN(CCO)CCCC(C)Nc1ccnc2cc(Cl)ccc12 (stereo not drawn) | human PBMC | qRT-PCR, item: RSAD2 mRNA |  | 1000 nM, added: ssRNA |  | inhibition | 17 ± 27%
CC[C@@H]1[C@H](F)C(=O)N[C@@H]1COc1nccc2cc(C(N)=O)c(OC)cc12 | Serine/threonine-protein kinase MARK2 (MARK2, Homo sapiens, UniProt Q7KZI7) | ATP probe binding, KiNativ profiling, item: Lys1 probe site | THP-1 cell lysate |  |  | IC50 | 3.9 µM
c1ccc2[nH]ccc2c1 | HCT-8 | RNA-seq, item: SLC16A9 |  | concentration not given |  | mRNA level, LS mean | 4.52 counts per million
COc1cc(/C=C/C(=O)N2CCC=CC2=O)cc(OC)c1OC | MDA-MB-468 | quantitative RT-PCR, item: IDH2 |  | 30 µM, 8 h | relative to: untreated cells | mRNA level | 83.9 ± 1.8%
COc1cc2ncnc(Nc3ccc(Oc4ccccc4)cc3C)c2cc1OC.O=C(O)C(F)(F)F | LoVo (KRAS G13D) | cell viability, resazurin |  | 0.1 µM, 72 h, added: trametinib 0 nM | relative to: DMSO | average fractional effect | 0.158%

For quick reference, copied from above:
SMILES | target or system | assay | system | setting | scale | endpoint | value
CCCCCCCC(=O)c1c(O)cc(O)cc1CC(=O)OCC | COS-7 |  |  | 10 µM, 24 h, 0.1% DMSO, unit not given | relative to: vehicle control | confluence | 1.06 ± 0.02
CC[C@H](C)C(=O)O[C@H]1C[C@H](O)C=C2C=C[C@H](C)[C@H](CC[C@@H](O)C[C@@H](O)CC(=O)O)[C@H]21 | COS-7 |  |  | 10 µM, 24 h, 0.1% DMSO, unit not given | relative to: vehicle control | apoptotic cells | 0.76 ± 0.16
C[C@H]1[C@H](C)CC[C@]2(C)CC[C@]3(C)C(=CC(=O)[C@@H]4[C@@]5(C)CC[C@@H](O)[C@](C)(C(=O)NCc6cn(-c7cccc(Br)c7)nn6)[C@@H]5CC[C@]43C)[C@H]12 | human PBMCs | flow cytometry |  | 5 µM | relative to: CD8+ T cells | TIGIT positive cells | 9.83%
